Assay results gathered from unrelated publications.
Parts stem from different laboratories: compare values within a part only.

Study 1 — cell line: HEK-293T/ACE2; tested at: concentration not given; time: 16 (unit not given); reference: vehicle
SMILES	viability
NC(=O)c1cn(Cc2c(F)cccc2F)nn1	105%
Cc1cc(C)cc(OCC2CNC(=O)O2)c1 (stereo not shown)	103%
CCCOc1ccc(C(=O)OCCN(CC)CC)cc1N	101%
COc1c(N2C[C@@H]3CCCN[C@@H]3C2)c(F)cc2c(=O)c(C(=O)O)cn(C3CC3)c12	101%

Study 2 — effect on: enzyme activity; mode: inhibitor; tested at: 20 µM
Target: Replicase polyprotein 1ab, polymerase (rep, Severe acute respiratory syndrome coronavirus 2, UniProt P0DTD1)
SMILES	inhibition [%]
Cc1cc(OCCN2CCOCC2)nn1-c1ccc2ccccc2c1	-2.02
CCC(=O)O[C@]1(C(=O)CCl)[C@@H](C)C[C@H]2[C@@H]3C[C@H](F)C4=CC(=O)C=C[C@]4(C)[C@@]3(F)[C@@H](O)C[C@@]21C	1.81
CC[C@H](/C=C/[C@@H](C)[C@H]1CC[C@H]2[C@@H]3CC=C4C[C@@H](O)CC[C@]4(C)[C@H]3CC[C@]12C)C(C)C	-3.73
CC(C)(C)C(=O)OCOC(=O)[C@@H]1N2C(=O)[C@@H](NC(=O)[C@H](N)c3ccccc3)[C@H]2SC1(C)C	1.83
COc1ccc([C@@H]2Sc3ccccc3N(CCN(C)C)C(=O)[C@@H]2OC(C)=O)cc1	0.35
CO[C@H]1C[C@H](O[C@H]2[C@H](C)O[C@@H](O[C@@H]3/C(C)=C/C[C@@H]4C[C@@H](C[C@]5(C=C[C@H](C)[C@@H](C6CCCCC6)O5)O4)OC(=O)[C@@H]4C=C(C)[C@@H](O)[C@H]5OC/C(=C\C=C\[C@@H]3C)[C@]54O)C[C@@H]2OC)O[C@@H](C)[C@@H]1O	-0.85
Cc1nc2ccccc2n1Cc1ccc(Cl)cc1	1.87
CC[N+](CC)(CC)CCOc1cccc(OCC[N+](CC)(CC)CC)c1OCC[N+](CC)(CC)CC	10.9
C=CC[C@]1(O)CC[C@H]2[C@@H]3CCC4=CCCC[C@@H]4[C@H]3CC[C@@]21C	0.62
Cc1ncc(NC(=O)c2ccc(CN3CCN(C)CC3)c(C(F)(F)F)c2)cc1Nc1nccc(-c2cccnc2)n1	-4.34
O=C(NC[C@H](O)CN1CCc2ccccc2C1)c1cc(NC2COC2)ncn1	-5.33

Study 3 — Structure (SMILES): O=[N+]([O-])C=Cc1ccc2c(c1)OCO2
rep main protease: Replicase polyprotein 1ab, main protease (rep, Severe acute respiratory syndrome coronavirus 2, UniProt P0DTD1)
tested on	test	system	setting	inhibition [%]
rep main protease	enzyme activity, inhibitor		20 µM, hit confirmation, with DTT	6.5
rep main protease	enzyme activity, inhibitor		20 µM, hit confirmation, no DTT	97.4
SARS-CoV-2	cytopathic effect	Vero E6	10 µM	-3.1

Single results of other studies
rep main protease: Replicase polyprotein 1ab, main protease (rep, Severe acute respiratory syndrome coronavirus 2, UniProt P0DTD1)
Molecule	tested on	test	system	setting	measurement	value
Cc1cc(Nc2ncc(Cl)c(Nc3ccccc3S(=O)(=O)C(C)C)n2)c(OC(C)C)cc1C1CCNCC1	rep main protease	reporter gene (Gaussia luciferase), inhibitor		20 µM	inhibition	-6.47%
TTVAAFHQECSLQSC	human CD4 T cells	AIM	peptide		responding donors	18%
CC(C)c1nc(CN(C)C(=O)N[C@H](C(=O)N[C@@H](Cc2ccccc2)C[C@H](O)[C@H](Cc2ccccc2)NC(=O)OCc2cncs2)C(C)C)cs1	rep main protease	reporter gene (Gaussia luciferase), inhibitor		20 µM	inhibition	-2.29%
CC[C@H](C)[C@H](NC(=O)[C@H](CC(C)C)NC(=O)[C@H](Cc1c[nH]c2ccccc12)NC(=O)[C@H](CCC(N)=O)NC(=O)[C@@H](NC(=O)[C@H](Cc1ccccc1)NC(=O)[C@H](C)NC(=O)[C@H](CCCCNC(=O)COCCOCCNC(=O)COCCOCCNC(=O)CC[C@H](NC(=O)CCCCCCCCCCCCCCCCCCC(=O)O)C(=O)O)NC(=O)[C@H](CCC(N)=O)NC(=O)[C@H](C)NC(=O)[C@@H](NC(=O)[C@H](CCCCN)NC(=O)[C@H](CC(=O)O)NC(=O)[C@H](CC(C)C)NC(=O)C(C)(C)NC(=O)[C@@H](NC(=O)[C@H](CO)NC(=O)[C@H](Cc1ccc(O)cc1)NC(=O)[C@H](CC(=O)O)NC(=O)[C@H](CO)NC(=O)[C@@H](NC(=O)[C@H](Cc1ccccc1)NC(=O)[C@@H](NC(=O)CNC(=O)[C@H](CCC(=O)O)NC(=O)C(C)(C)NC(=O)[C@@H](N)Cc1ccc(O)cc1)[C@@H](C)O)[C@@H](C)O)[C@@H](C)CC)[C@@H](C)CC)C(C)C)C(=O)N[C@@H](C)C(=O)NCC(=O)NCC(=O)N1CCC[C@H]1C(=O)N[C@@H](CO)C(=O)N[C@@H](CO)C(=O)NCC(=O)N[C@@H](C)C(=O)N1CCC[C@H]1C(=O)N1CCC[C@H]1C(=O)N1CCC[C@H]1C(=O)N[C@@H](CO)C(N)=O			healthy subjects, single ascending dose	0.25 mg, titre increase ≥4-fold	treatment-boosted ADA positive subjects	0%
